Published values pooled from the literature.
Parts stem from different laboratories: compare values within a part only. Changes are numbered by the printed parent chain.

Block 1 — technique: protein binding microarray; form: double-stranded DNA, one strand shown; medium: in vitro; concentration: not given; baseline: not given; reading: higher = stronger binding; endpoint: E-score
Target: Histone acetyltransferase KAT6A, winged helix 1, GST fusion (KAT6A, Homo sapiens, UniProt Q92794, residues 1-85)
Setting: 8-mer, flanks averaged, mean of 2 arrays, mostly near background
Target sequence (chain): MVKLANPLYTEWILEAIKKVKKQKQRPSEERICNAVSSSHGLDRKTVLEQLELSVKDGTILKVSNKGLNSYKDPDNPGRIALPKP
AATCGGGT: 0.0631
ATATCACG: 0.0135
CCATTTAG: -0.126
AAGCGCGA: 0.302
CCTTATAA: -0.0173
ATAGAGTA: -0.0433
AATAGCAG: -0.239
AGGCGTCA: -0.0558
TCTCGGCA: 0.168
CGTTCTTA: 0.00145
ATAGAATG: -0.0579
GAGTTAAA: -0.0415
CGTGCAGC: 0.149
ATGGCAGA: -0.03
CTGGACGC: 0.073
ATGTCATC: -0.119
ACATGTGC: 0.0455

Block 2 — target: CCNF, cyclin fold, Cln2 fusion (human); technique: yeast growth competition, sequencing; medium: yeast; setting: strong parent motif; baseline: not given; reading: higher = stronger binding; endpoint: normalised enrichment score
Starting sequence: RB1 docking peptide (human); PKPLKKLRFDIEG
E12H: 1.26
L4G: 2.19
L4C: 4.81
L7N: 0.82
K2G: 0.0921
K2F: 2.6
D10E: -0.0157
K5G: 0.282
K5F: 0.535
L4Y: 1.82
G13S: 1.63
I11N: 2.1
P3H: -0.055
E12W: 2.03
F9L: 0.649
I11S: 1.33
I11G: 1.27
G13Q: 1.2
K2I: 2.25
L7E: 0.322
K6I: 0.649
K5M: 1.12

Block 3 — technique: RNA Bind-n-Seq; form: RNA; medium: in vitro; concentration: not given; setting: RNA with constant flanks, ends assumed; baseline: input RNA pool; reading: higher = stronger binding; endpoint: bound/input enrichment
Target: RING finger protein unkempt homolog, zinc fingers 1-6, GST-SBP tag (UNK, Homo sapiens, UniProt Q9C0B0, residues 30-357)
Construct (chain): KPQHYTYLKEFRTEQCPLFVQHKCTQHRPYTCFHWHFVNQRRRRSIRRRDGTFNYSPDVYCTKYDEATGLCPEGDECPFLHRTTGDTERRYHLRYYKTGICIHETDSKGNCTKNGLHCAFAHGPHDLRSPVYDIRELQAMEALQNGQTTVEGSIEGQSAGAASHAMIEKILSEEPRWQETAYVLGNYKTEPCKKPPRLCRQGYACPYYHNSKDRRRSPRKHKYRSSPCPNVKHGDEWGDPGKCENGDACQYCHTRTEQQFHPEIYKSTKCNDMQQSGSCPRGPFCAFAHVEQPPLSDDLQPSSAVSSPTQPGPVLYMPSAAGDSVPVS
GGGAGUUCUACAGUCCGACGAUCGCUGCCAUGGCUGCAAGACCUCAUUCAAUUGAUGGGAGAGUAGUUGAGCCAAAACGUGCUGCCGCAAGAGAGGAAUCUGGAAAACCAGGGGCUCAUGUAACUGUGAAGAAGCUGUUUGUUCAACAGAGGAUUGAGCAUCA: 0.178 ratio
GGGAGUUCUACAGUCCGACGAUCCCGACGCGCGUCUGUGGAGAAGCGGCUUGGUCGGGGGUGGUCUCGUGGGGUCCUGCCUGUUCCGUCGCUUUCAGGGUUCUUGAGCCCCUUCACGACCGUCACCAUGGAAGUGUCACCAUUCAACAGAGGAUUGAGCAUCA: 0.0592 ratio
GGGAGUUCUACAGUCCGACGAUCACUGAAAUACUUAAUGAGCAAUUACUUGAUUUUUAAUGAUGACUUCGAAGGAGUCAUCACCCGGUGCUUUGUCCUUUUUGUAUUCUAGUUGCACCCACCUCUUGGAUUGGAUAUAGCAAUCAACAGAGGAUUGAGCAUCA: 4.04 ratio
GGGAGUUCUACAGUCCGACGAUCAGAAAAUUGUGCUACAGUGUGUGUGUGCGUGUGUGUAUGUGUAGUGCUAGGAGUCCACAGCCGGUUGCUUGUCAAGCCAUUGCCGUGACAAUGGCAUCUCUUAUAUUGACCCAAAAACCACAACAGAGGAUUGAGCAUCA: 0.284 ratio
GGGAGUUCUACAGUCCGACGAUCUAGUGACAUGGCCUUUGGGGACAGUACAUGAUUUCUCAUAAUUUGAAUUCAUAGUAGAUACCGUUAAGGGAACAGCAGUCAGGUUAUGAAUCUUUUCCCAUUUUUCUUUUUAAGUAAAUUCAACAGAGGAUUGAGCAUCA: 0.826 ratio
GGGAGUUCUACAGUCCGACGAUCGGACAUGAUUUGAGGGUGGGAACCUCGCAAGUUGUGACCUCUUGUUAACUUGGUCCCCAGAUCCGCCGGCCUUGGCCUUUCCAGCUGCCUUCAGUGCUGCGUGUUUGGUUCUCAGUUGUACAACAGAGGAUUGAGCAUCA: 0.17 ratio
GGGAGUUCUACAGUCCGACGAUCAAACUCAUCCUUAAAGGGGUCAUACUGCUGAUUGUGGACAAAGCCCUAGAAGAGCCAAAGUACCGCUCACUGUAUGCUCAGCUAUGUCUGCGAUUGGCAGAAGAUGCACCAAACUUUGAUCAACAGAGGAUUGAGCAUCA: 0.133 ratio
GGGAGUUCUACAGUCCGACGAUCAUGGAACAUUUUGAUGCAUCACUUAGUACCUAUUUCAAGGCAUUGCUAGGCCCUCGAGAUACCCGAGUAAAAGGAUGGUUUCUUCUGGACAAUUAUAUACCCACAUUUAUCUGCUCUGUCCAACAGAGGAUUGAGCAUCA: 2.01 ratio
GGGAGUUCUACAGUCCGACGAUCACAUCUGACUGCUGGAUGAAGACUGUUCCAAGUUAUAACCAAACAAAUAGCUCCAUGGACUUCCGAAAUUAUAUGAUGAGAGAUGAGAAUCUGGAACCGCUGCCCAAAAACUGGGAAAUGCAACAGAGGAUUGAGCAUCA: 0.305 ratio
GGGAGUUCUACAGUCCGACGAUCAAAGUCCACAGUGCAGUGCCUGUCCAGUGUUCAGUGGAGUUUCUGGCACUGGUACAUCUCAACCGGAUUUCUUUUUAAGAGUACUGUACUGUCUCUUGAAGCCAGUCAGGGACUUUUUAACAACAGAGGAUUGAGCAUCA: 0.139 ratio
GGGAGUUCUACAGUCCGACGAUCACACCUAGUGACCGUUCCAGAUAUAGAUUAGAUUUGGAAGGAAAUGAGUAUCCUAUUCACCGUACCCCAAACUGUCAUGACCAUGAACGCAACCAUAAAGUGCCUCCACCUAUUAAACCUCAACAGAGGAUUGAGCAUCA: 0.655 ratio

Block 4 — technique: universal PBM; form: double-stranded DNA, one strand shown; medium: in vitro; concentration: not given; reading: higher = stronger binding; endpoint: E-score
Target: Sal-like protein 4, full length isoform B (SALL4, Homo sapiens, UniProt Q9UJQ4-2, residues 1-616)
Setting: 8-mer, flanks averaged, mean of replicates
Residues (chain): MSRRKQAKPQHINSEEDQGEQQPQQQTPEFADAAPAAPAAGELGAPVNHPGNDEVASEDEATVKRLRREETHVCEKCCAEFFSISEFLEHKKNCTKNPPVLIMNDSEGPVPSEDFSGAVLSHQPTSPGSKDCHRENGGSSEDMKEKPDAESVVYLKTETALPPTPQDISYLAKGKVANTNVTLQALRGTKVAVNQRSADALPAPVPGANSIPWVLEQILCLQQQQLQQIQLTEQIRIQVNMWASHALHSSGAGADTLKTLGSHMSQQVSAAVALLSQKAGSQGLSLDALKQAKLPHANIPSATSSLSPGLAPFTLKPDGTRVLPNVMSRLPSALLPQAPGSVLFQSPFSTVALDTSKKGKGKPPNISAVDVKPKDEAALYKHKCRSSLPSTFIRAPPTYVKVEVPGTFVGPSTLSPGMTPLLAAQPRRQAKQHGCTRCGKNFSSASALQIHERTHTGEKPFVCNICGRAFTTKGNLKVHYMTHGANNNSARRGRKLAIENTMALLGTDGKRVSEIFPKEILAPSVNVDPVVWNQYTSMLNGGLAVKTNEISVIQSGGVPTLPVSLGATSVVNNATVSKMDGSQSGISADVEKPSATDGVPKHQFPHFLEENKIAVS
GAGATCGC: -0.203
CCTGGAGA: -0.192
GCCAAGAC: -0.0941
CACCTCAC: -0.158
AATCAAAC: 0.108
GTAGACTA: -0.0915
AAGTCGCA: 0.0501
AGCTCCAC: -0.234
CAAAGAGA: 0.0343
CTGCTTCA: -0.185
GCTGCGGA: -0.155
TAATTGCA: 0.18
CAACCTGA: -0.0167
CAATGACC: -0.099
CAGACGCA: -0.166
AAGAATAC: 0.216
AATGCTAT: 0.257
CGACGTGA: -0.018
ACTCCGAT: -0.0738
CTCTAGTC: -0.191
CATATTCA: 0.345
TCGTAAGA: -0.00273
ACACCCTA: 0.0438

Block 5 — target: ATF5, bZIP domain (human); technique: DHFR protein complementation; medium: yeast; baseline: wild-type JUN-FOS pair; reading: higher = stronger binding; endpoint: binding fitness
Setting: single substitutions, most at no-binding floor
Starting sequence: JUN, bZIP domain (human); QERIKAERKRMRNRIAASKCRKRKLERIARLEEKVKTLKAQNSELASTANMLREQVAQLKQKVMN; partner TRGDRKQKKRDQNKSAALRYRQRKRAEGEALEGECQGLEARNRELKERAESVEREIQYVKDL
L38S: -1.42 natural log
M51W: -1.48 natural log
A49N: -1.45 natural log
L52M: -1.51 natural log
Q55E: -1.43 natural log
N42W: -1.39 natural log
K39M: -1.46 natural log
R53V: -1.49 natural log
V35C: -1.4 natural log
S43L: -1.44 natural log
V35K: -1.46 natural log
K39E: -1.32 natural log
L52D: -1.59 natural log
N42M: -1.37 natural log
T48S: -1.36 natural log
I28E: -1.32 natural log
A29P: -1.54 natural log
E32L: -1.36 natural log
T37W: -1.44 natural log
E44T: -1.5 natural log
Q41A: -1.41 natural log
A46Y: -1.46 natural log
S47M: -1.49 natural log

Further values, each from its own experiment
PhoQ, residues 284 288 289 292 302 303 SSLVEF
fold induction (PhoP, residues 12 14 15 18 19 LYHSL (Escherichia coli, UniProt P23836); Sort-seq, item: YFP reporter; E. coli; PhoQ-PhoP variant library, with: 10 µM Mg2+; baseline: high Mg2+ state, higher = stronger signaling): 3.83

Excerpt of the above (block 2):
I11S: 1.33
K5M: 1.12
D10E: -0.0157
L7N: 0.82
G13Q: 1.2
L7E: 0.322
K2G: 0.0921
L4Y: 1.82
L4C: 4.81
I11N: 2.1
